Measurements of several laboratories.
Lines come from different studies, so protocols differ. Numbers after ± are the reported error.

SMILES | assay | system | conditions | terminal half-life [h]
O=C1Nc2ccc(Cl)cc2[C@@](C#CC2CC2)(C(F)(F)F)O1 |  | healthy human, serum | oral, 400 mg single dose, added: ezetimibe | 121 ± 97
C=CC(=O)Nc1cc(Nc2ncc(C(=O)OC(C)C)c(-c3cn(C)c4ccccc34)n2)c(OC)cc1N(C)CCN(C)C |  | human, fasted | oral, 20 mg single dose, geometric mean | 18.1
CN[C@H]1CN(c2ccc3c(=O)c(C(=O)O)cn(-c4nccs4)c3n2)C[C@@H]1OC |  | human patients, plasma | intravenous, mean, about 10 min infusion | ~25
COc1cccc(OCCCN)c1-c1cc(Nc2cnc(C#N)cn2)n[nH]1 | noncompartmental analysis | human, plasma | IV infusion, 80 mg/m^2 over 1 h, cycle 1 day 1, geometric mean | 16
CC(C)C[C@H](NC(=O)CNC(=O)c1cc(Cl)ccc1Cl)B(O)O |  | human, plasma | intravenous, 0.5 mg/m^2, day 15 | 292
C=C(C)[C@@H]1CC[C@]2(NCCN3CCS(=O)(=O)CC3)CC[C@]3(C)[C@H](CC[C@@H]4[C@@]5(C)CC=C(C6=CC[C@@](CF)(C(=O)O)CC6)C(C)(C)[C@@H]5CC[C@]43C)[C@@H]12 |  | human | oral, 100 mg once daily, day 14, multiple ascending dose | 28.4
Cc1cc(Nc2cc(N3CCN(C)CC3)nc(/C=C/c3ccccc3)n2)n[nH]1 |  | human patients, plasma | oral, dose not given, multiple doses | 44.9 to 53.1
O=c1c(-n2ccnn2)c[nH]n1-c1cc(N2CCOCC2)ncn1 |  | healthy male humans | oral, added: atazanavir | 6.9
CC[C@H](C)[C@H](NC(=O)[C@H](CC(C)C)NC(=O)[C@H](Cc1c[nH]c2ccccc12)NC(=O)[C@H](C)NC(=O)[C@@H](NC(=O)[C@H](Cc1ccccc1)NC(=O)[C@H](CC(=O)O)NC(=O)[C@H](CCCNC(=N)N)NC(=O)[C@H](C)NC(=O)[C@H](C)NC(=O)[C@H](CC(C)C)NC(=O)[C@H](C)NC(=O)[C@H](CC(=O)O)NC(=O)[C@H](CC(C)C)NC(=O)[C@@H](NC(=O)[C@@H](NC(=O)[C@H](C)NC(=O)[C@H](CC(C)C)NC(=O)[C@H](CCC(=O)O)NC(=O)[C@H](CO)NC(=O)[C@H](CO)NC(=O)[C@H](Cc1ccccc1)NC(=O)[C@@H](NC(=O)CNC(=O)[C@H](CCC(=O)O)NC(=O)CNC(=O)[C@@H](N)Cc1cnc[nH]1)[C@@H](C)O)[C@@H](C)O)[C@@H](C)CC)[C@@H](C)CC)C(=O)N[C@@H](C)C(=O)N[C@H](C(=O)N[C@@H](CCCCN)C(=O)N[C@H](C(=O)N[C@H](C(=O)N[C@@H](CC(=O)O)C(=O)N[C@@H](CCCCN)C(=O)N[C@@H](CCCCN)C(=O)N[C@@H](CCCCN)C(=O)N[C@@H](CCCCN)C(=O)N[C@@H](CCCCN)C(=O)N[C@@H](CCCCN)C(N)=O)[C@@H](C)O)[C@@H](C)CC)[C@@H](C)O |  | healthy human subjects, plasma | subcutaneous, 10 mg once weekly, day 36 after 6 doses, steady state, mean | 2.8
C[C@H]1CN(C2COC2)CCN1c1ccc(Nc2cc(-c3ccnc(N4CCn5c(cc6c5CC(C)(C)C6)C4=O)c3CO)cn(C)c2=O)nc1 |  | healthy human, both sexes, plasma | oral, 100 mg, added: itraconazole oral solution 200 mg, steady state | 15.9 ± 3.02
CN1CCN(c2cccc3c2CCN(C(=O)/C=C/c2c(-n4cnnn4)ccc(Cl)c2F)[C@@H]3C(=O)Nc2ccc(C(=O)O)cc2)C(=O)C1 |  | human | intravenous infusion, 1.5 to 25 mg/h, 2 h infusion | 2.04 to 4.94
CC(C)(Sc1ccncc1-c1ccc(C#N)c2ccccc12)C(=O)O |  | humans, male, normal renal function, fasted, plasma | oral, 15 mg | 13
O=C(Nc1nc2cccc(-c3ccc(CN4CCS(=O)(=O)CC4)cc3)n2n1)C1CC1 |  | human male | oral, 450 mg once daily, steady state, mean | 7.09
CC(C)n1cc(C#N)c2cc(-n3cc(C(=O)O)cn3)ccc21 |  | healthy male humans | oral, higher single doses | 11.9 to 13.3
CCOc1c([C@H](C)n2nc(C)c3c(N)ncnc32)cc(Cl)c(F)c1[C@@H]1CNC(=O)C1 |  | healthy fasted humans, plasma | oral, 20 mg | 14.7 ± 3.6
